Experimental data collected from several papers.
A part holds a random share of what one study measured. Positions count from the first letter of the parent shown.

Study 1
Target: RNA binding protein fox-1 homolog 2, RRM domain, GST-SBP tag (RBFOX2, Homo sapiens, UniProt O43251-10, residues 100-194)
Technique: RNA Bind-n-Seq
Form: RNA
Sample: in vitro
Tested at: 365 nM
Setting: natural RNA segment, single round, ends assumed
Baseline: no-protein control
Reading: higher = stronger binding
Target sequence (chain): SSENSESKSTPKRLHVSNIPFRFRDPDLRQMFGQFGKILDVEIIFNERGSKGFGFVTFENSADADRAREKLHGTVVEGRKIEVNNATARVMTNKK
For `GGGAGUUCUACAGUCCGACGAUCACUUUACACACUAAGUAAACACUUAUUGUCAGGUGCCUAGUCUUGAGUGAAUUGUUAGAUGUGCACUGAACUCGGGAUGUUGGGGAUUGGAGAGAGAGAAUUGCCAAAGUUGGAAUUCUCGGGUGCCAA`, “RBNS enrichment (R)” read 2.21.
Under “RBNS enrichment (R)”, `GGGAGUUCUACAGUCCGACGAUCGGAUGUUUGGAGUAGAUACUGGUCUGUGAUUGGUGGAAUGGAGAACACACGUGUUGGUGCUUCUGGGUAGCACUGGUUUGCAUUAGUUUAUGUUUCCAUGCCAGAGUUUGUGGAAUUCUCGGGUGCCAA` is recorded as 1.89.
Under “RBNS enrichment (R)”, `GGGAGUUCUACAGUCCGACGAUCAUAUUCUUCAUCUCAUCCUGUGGGAUUCUGCAAUCAUAAAACACAGGAAAGGGGAAUUCUGUGAUGGCAAAUGAAAAAAAUGUUAACAUUUGGUAGACAUGUGCUUUGACUGGAAUUCUCGGGUGCCAA` is recorded as 0.291.
Under “RBNS enrichment (R)”, `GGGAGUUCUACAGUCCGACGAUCUGUUAAUAAACUUUACACAGUAAAUAGACACACUUUCUGCAAUGUACUGACAUGAGUGUCCAAUAUAUGGUAUAUUUUUCUAAUAUAAUACUCUGGUAUGAUUGGUUCUGUGGAAUUCUCGGGUGCCAA` is recorded as 0.394.
For `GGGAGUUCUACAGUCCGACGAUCUAAGAAAAACAGUUAACAUGAGACAAAGUUUAGGAAAAACUAAUAAAAGAAACCUGUCUUAACUUGAUGGUUUUCUUAAUUUUCUUAAGUGGGCUGUUUGUGUGUGUGUGUGGAAUUCUCGGGUGCCAA`, “RBNS enrichment (R)” read 1.2.
`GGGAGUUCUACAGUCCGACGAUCAGAGACUAUUUUAAUCCUUAGCGCAUGGGUCCCGCUUUUGGUGAUAUUUUCACAUUAGGUUGCUGUCUAAUUUUGGAGAGGGUCAGGAAUCGUUCUGGUGCCUUAAUGCAUGGAAUUCUCGGGUGCCAA` — result for “RBNS enrichment (R)”: 9.46.
`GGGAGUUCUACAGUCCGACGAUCGGUGUGAUCGUCUCCUCAGUGAGCGGCGGCUCCCACUGCGCUGUGGGUAGUGUGUGACUGUGGCUGUACUGUAUAGUGAACAUAGUUGGCAUAUCUUUGUUUGAAGUUUGUGGAAUUCUCGGGUGCCAA`: “RBNS enrichment (R)” 0.837.
`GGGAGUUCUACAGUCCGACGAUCUUUUCCUCCCUUACAUAUAAAUAAAUAAUGGUAACCGGUUUCUAUCUUGUAGCACCAACUGCUGUAAGGGAAUGCUGCAGACAGUGCUUGGGCGAGUGUGGCGCCAACAAUGGAAUUCUCGGGUGCCAA`: “RBNS enrichment (R)” 1.
For `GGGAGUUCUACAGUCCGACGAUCCGACUUUGCACUUAAAAAGGGAUAUUGUAAAUGAAAGGCUGCAGUGCCAGUUUUAAGAAAGAAUUUCUGUGAAGUGUGAGGACUCUGGAGUCUAGCUCACAUAAAGAGAGUGGAAUUCUCGGGUGCCAA`, “RBNS enrichment (R)” read 0.546.
Under “RBNS enrichment (R)”, `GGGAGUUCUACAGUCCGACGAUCCAUGCUUCUUAGCGCUGACUUCCAGGAGCAAGAGUGAAGAGGCAGCACGUAGAACUCCCUGCAUAAGCCAAGCCACCAGGCUCCUAUGCCUCUCUUAGUCUUCCCCCUAGUGGAAUUCUCGGGUGCCAA` is recorded as 0.394.
Under “RBNS enrichment (R)”, `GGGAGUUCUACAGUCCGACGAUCUGCAGAAGCCAGAUCUGGGCGCCUGAACCCAAAACCUCGGUGGGCCACGCUCCCAGCAGCCCACAUCUCCGGAGCCUGAGCCUCACCCCAGGAGGGAGCGCCAUCAGAACUGGAAUUCUCGGGUGCCAA` is recorded as 0.381.
`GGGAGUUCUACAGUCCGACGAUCAGCUGUCCCUGUCACCAAGCUCACAGUUCCUCGCCCUGGGUCUAAGGGGUUGGUUGAGGUGGAAGCCCUCCUUCCACGGAUCCAUGUAGCAGGACUGAAUUGUCCCCAGUUGGAAUUCUCGGGUGCCAA`: “RBNS enrichment (R)” 0.263.

Study 2
Target: ABI1, truncated, D143A, DHFR fusion (Arabidopsis thaliana)
Technique: DHFR PCA, deep sequencing
Sample: yeast
Setting: methotrexate growth selection, single substitutions
Together with: (+)-ABA 58 µM
Baseline: wild-type fitted maximum
Reading: higher = stronger binding
Parent: PYL1, truncated, DHFR fusion (Arabidopsis thaliana); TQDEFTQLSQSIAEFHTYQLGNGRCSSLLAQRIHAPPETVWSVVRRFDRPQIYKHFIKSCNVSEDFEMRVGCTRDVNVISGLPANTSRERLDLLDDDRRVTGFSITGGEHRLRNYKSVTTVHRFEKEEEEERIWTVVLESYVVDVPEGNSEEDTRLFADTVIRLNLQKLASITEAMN; partner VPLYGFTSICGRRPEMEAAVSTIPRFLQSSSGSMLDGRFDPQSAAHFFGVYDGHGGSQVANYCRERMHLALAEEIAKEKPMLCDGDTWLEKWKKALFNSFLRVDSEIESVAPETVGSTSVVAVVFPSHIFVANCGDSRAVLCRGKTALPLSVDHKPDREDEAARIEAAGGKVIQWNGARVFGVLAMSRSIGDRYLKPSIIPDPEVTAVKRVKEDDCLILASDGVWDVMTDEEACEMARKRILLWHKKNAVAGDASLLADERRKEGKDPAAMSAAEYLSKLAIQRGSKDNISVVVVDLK
`Q167F` — result for “relative binding score”: 61.6%.
`L169Q` — result for “relative binding score”: -4.68%.
Under “relative binding score”, `T119C` is recorded as 82.1%.
`E4N`: “relative binding score” 75.8%.
`R88K`: “relative binding score” 84.7%.
Under “relative binding score”, `D97V` is recorded as 91.2%.
`E129F`: “relative binding score” 88.2%.
`R99K`: “relative binding score” 100%.
`D153L`: “relative binding score” 1.84%.
`K168A`: “relative binding score” 75.6%.
`E38M` — result for “relative binding score”: 27.4%.
Under “relative binding score”, `A175K` is recorded as 78.8%.
Under “relative binding score”, `E128Q` is recorded as 101%.
Under “relative binding score”, `P37A` is recorded as 77.7%.
`E4L` — result for “relative binding score”: 88.7%.
Under “relative binding score”, `P36R` is recorded as 81.2%.
`Q2F` — result for “relative binding score”: 91.4%.
`T1I`: “relative binding score” 87.8%.
For `N85W`, “relative binding score” read 84.4%.
`R74F` — result for “relative binding score”: -1.16%.
`R88G` — result for “relative binding score”: 13.9%.

Study 3
Target: CCND1, cyclin fold, Cln2 fusion (human)
Technique: yeast growth competition, sequencing
Sample: yeast
Setting: strong parent motif
Baseline: not given
Reading: higher = stronger binding
Parent: SCAPER docking peptide (human); SNARRSLNFGGST; partner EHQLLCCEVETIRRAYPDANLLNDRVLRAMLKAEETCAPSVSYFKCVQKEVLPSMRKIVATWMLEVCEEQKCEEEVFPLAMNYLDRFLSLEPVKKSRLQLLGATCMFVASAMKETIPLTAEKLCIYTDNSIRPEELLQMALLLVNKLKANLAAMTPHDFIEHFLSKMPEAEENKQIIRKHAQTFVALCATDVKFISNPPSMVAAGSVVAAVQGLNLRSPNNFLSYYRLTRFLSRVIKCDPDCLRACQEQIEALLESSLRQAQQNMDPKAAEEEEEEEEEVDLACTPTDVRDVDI
`S12G` — result for “normalised enrichment score”: 1.06.
`F9N`: “normalised enrichment score” -0.538.
Under “normalised enrichment score”, `S12A` is recorded as 1.13.
For `A3E`, “normalised enrichment score” read 1.11.
For `S6I`, “normalised enrichment score” read 1.19.
For `S1M`, “normalised enrichment score” read 0.466.
`G11H`: “normalised enrichment score” 0.257.
For `T13I`, “normalised enrichment score” read 1.12.
`S12V`: “normalised enrichment score” 0.829.
`T13L`: “normalised enrichment score” 1.57.
For `G11L`, “normalised enrichment score” read 0.177.
`A3Y`: “normalised enrichment score” 0.0367.
`S12E`: “normalised enrichment score” 1.94.
`G10D` — result for “normalised enrichment score”: 1.07.
`T13F` — result for “normalised enrichment score”: 0.868.
For `S6Q`, “normalised enrichment score” read 2.42.
`N2K`: “normalised enrichment score” 0.746.
For `G10K`, “normalised enrichment score” read 0.253.
Under “normalised enrichment score”, `N2E` is recorded as 0.663.
`G10A`: “normalised enrichment score” 0.966.
`G10Y` — result for “normalised enrichment score”: 0.778.
`R5K F9L` — result for “normalised enrichment score”: -0.193.
`R5E` — result for “normalised enrichment score”: 0.904.
`R4Q` — result for “normalised enrichment score”: 0.0642.
For `R5S`, “normalised enrichment score” read 0.427.

Other studies, line by line
With `PhoQ, residues 284 288 289 292 302 303 TNSAEL` the fold induction was 1 (PhoP, residues 12 14 15 18 19 HEGLL (Escherichia coli, UniProt P23836); Sort-seq, refers to: YFP reporter; E. coli; PhoQ-PhoP variant library, together with: 10 µM Mg2+; baseline: high Mg2+ state, higher = stronger signaling).

Repeated from above (study 2):
`R88K`: “relative binding score” 84.7%.
Under “relative binding score”, `D97V` is recorded as 91.2%.
`E129F`: “relative binding score” 88.2%.
`R99K`: “relative binding score” 100%.
`D153L`: “relative binding score” 1.84%.
`K168A`: “relative binding score” 75.6%.
`E38M` — result for “relative binding score”: 27.4%.
